# Measurements collected from several papers.
# Compare with care: the assays were run in different laboratories. Numbers after ± are the reported error.
# Cell line: HepG2
SMILES,test,system,conditions,endpoint,value
CCCCCCCCCCCCCNCC(=O)N(CC(=O)N(CCCCN)CC(=O)N(CCN)CC(=O)N(CC(N)=O)Cc1ccc(Br)cc1)Cc1ccc(Br)cc1,"cytotoxicity, MTT",,72 h,TD50,72 ± 20 µg/mL
CC1OC(CC(=O)O)Cc2c(O)c3c(c(O)c21)C(=O)C=C(C1=CC(=O)c2c(O)c4c(c(O)c2C1=O)CC(CC(=O)O)OC4C)C3=O (stereo not shown),cell viability,,"24 h, 37 °C",CC50,96.1 µM
COC(=O)c1[nH]cc2c1[C@@]1(CN(C)c3ccc(Cl)cc31)c1[nH]c3ccccc3c1-2 (racemic),cytotoxicity,,,CC50,49 ± 1 µM
CCCCCCCCCCCCCNCC(=O)N(CC(=O)N(CCCCN)CC(=O)N(CCN)CC(=O)N(CC(N)=O)CC(C)C)CC(C)C,"cytotoxicity, MTT",,72 h,TD50,167 ± 75 µg/mL
CO[C@H]1C[C@@H]2CC[C@@H](C)[C@@](O)(O2)C(=O)C(=O)N2CCCC[C@H]2C(=O)O[C@H]([C@H](C)C[C@@H]2CC[C@@H](O)[C@H](OC)C2)CC(=O)[C@H](C)/C=C(\C)[C@@H](O)[C@@H](OC)C(=O)[C@H](C)C[C@H](C)/C=C/C=C/C=C/1C,cell viability,,"24 h, 37 °C",CC50,67.2 µM
COC(=O)c1[nH]c(C(=O)OC)c2c1-c1c([nH]c3ccc(Cl)cc13)[C@@]21CN(C)c2ccc(Cl)cc21 (racemic),cytotoxicity,,,CC50,49 ± 1.4 µM
CCCCCCCCCCCCCNCC(=O)N(CC(=O)N(CCCCN)CC(=O)N(CCN)CC(=O)N(CC(N)=O)Cc1ccccc1)Cc1ccccc1,"cytotoxicity, MTT",,72 h,TD50,145 ± 96 µg/mL
O=C(Cc1c(-c2ccccc2)n[nH]c1-c1ccccc1)NO,,serum-free RPMI 1640,"30 µM, 24 h, 1% DMSO",viability,100%
COC(=O)c1[nH]cc2c1[C@]1(CN(C)c3ccc(Cl)cc31)c1[nH]c3ccc(Cl)cc3c1-2 (racemic),cytotoxicity,,,CC50,37 ± 4.3 µM
CC(C)(C)c1ccc(C(=O)Nc2ccc3ccn(Cc4ccc(C(=O)O)cc4)c3c2)cc1,"qPCR, item: CYP7A1",,"10 µM, 12 h, FXR target gene",mRNA level,decreased

# Excerpt of the above:
SMILES,test,system,conditions,endpoint,value
COC(=O)c1[nH]cc2c1[C@@]1(CN(C)c3ccc(Cl)cc31)c1[nH]c3ccccc3c1-2 (racemic),cytotoxicity,,,CC50,49 ± 1 µM
